# Published values gathered from unrelated publications.
# Numbered parts are unrelated; each lists some results of a single study.

# Study 1 — technique: aptamer microarray, sandwich; molecule type: DNA with 2'F-ANA; medium: in vitro; tested at: 200 nM; together with: Cy3 exosite-II aptamer, 400 nM; direction: higher = stronger binding; sequence: GGTTGGTGTGGTTGG
# Target: Prothrombin, mature alpha-thrombin (F2, Homo sapiens, UniProt P00734)
# Setting: whole 15-mer aptamer, many near background
Modification,mean fluorescence intensity [a.u.]
2'F-ANA at 3 4 6 7 10 11 12 14,176
2'F-ANA at 1 2 5 6 7 8 9 10 12 14,55.9
2'F-ANA at 1 2 3 5 7 8 12 13 15,96.9
2'F-ANA at 1 2 4 6 7 10 11 13 14 15,49.9
2'F-ANA at 1 2 5 8 9 11,187
2'F-ANA at 1 3 5 6 7 8 12 15,144
2'F-ANA at 7 9 10 15,164
2'F-ANA at 1 2 4 10 11 12 15,57.7
2'F-ANA at 3 4 6 8 9 13 14 15,212
2'F-ANA at 1 2 3 7 8 12 14,123
2'F-ANA at 2 6 14 15,117
2'F-ANA at 1 2 3 5 6 14 15,50
2'F-ANA at 1 4 7 8 10 12 14 15,44.4
2'F-ANA at 1 2 4 5 9 10 12 13 15,47
2'F-ANA at 1 5 9 10 12 13,46.3
2'F-ANA at 1 2 3 8 10 11 13 14,50.7
2'F-ANA at 2 7 8 9 10 12,187
2'F-ANA at 1 5 6 7 8 10 11 13 15,74.6
2'F-ANA at 2 3 5 7 8 10 11 12 13,58.9
2'F-ANA at 1 3 5 6 12 14,45.4
2'F-ANA at 3 6 8 9 10 11 13 14 15,347
2'F-ANA at 2 3 4 5 7 10 11 12 13,52.1
2'F-ANA at 5 6 7 10 11 13,54.9
2'F-ANA at 1 2 3 6 8 9 10 11 12 13 14,59.9

# Study 2 — technique: RNA Bind-n-Seq; molecule type: RNA; medium: in vitro; tested at: 1 µM; setting: whole 134-nt RNA, ends assumed; together with: 150 mM KCl; relative to: input library; direction: higher = stronger binding
# Target: Ras GTPase-activating protein-binding protein 1, C-terminal RGG region (G3BP1, Homo sapiens, UniProt Q13283)
# Chain of UniProt Q13283 (whole entry, looked up): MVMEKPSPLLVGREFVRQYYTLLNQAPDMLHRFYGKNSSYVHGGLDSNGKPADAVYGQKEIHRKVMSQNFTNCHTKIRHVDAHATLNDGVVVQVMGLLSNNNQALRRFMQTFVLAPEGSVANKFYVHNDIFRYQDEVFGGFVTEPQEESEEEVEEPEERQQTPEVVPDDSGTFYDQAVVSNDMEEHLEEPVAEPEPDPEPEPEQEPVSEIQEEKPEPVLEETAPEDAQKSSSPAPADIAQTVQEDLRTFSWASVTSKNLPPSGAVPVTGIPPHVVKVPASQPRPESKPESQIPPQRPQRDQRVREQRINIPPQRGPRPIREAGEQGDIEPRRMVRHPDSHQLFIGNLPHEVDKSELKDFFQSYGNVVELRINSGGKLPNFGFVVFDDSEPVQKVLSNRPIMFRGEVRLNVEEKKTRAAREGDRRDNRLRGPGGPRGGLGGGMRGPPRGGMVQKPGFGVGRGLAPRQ
# Shared flanks, not repeated: GGGAGUUCUACAGUCCGACGAUC … UGGAAUUCUCGGGUGUCAAGG
Sequence,log2 enrichment
CUGUGCUACACAUCGUAUGUACCGAAUCGGGGCCCCCCCGGGCCCCCCCGGGGCCCCCCCGGAAAGUAUUAUGUUACGCCGUUCGGAUCU,-2.09
GCAGGAAGUAAAAACAAAUGGAAAUGCUUCGGAUAGUGGCAGGGGUGGGGGUGGCUAAGGAAAGGGUGGGAUGGGAGUGGGUAAAGAGUU,0.775
GCAGGAAGUAAAAACAAAUGGAAAUGCUUCGCAUAGUGGCAGGGGUGGGGGUUGCUAAGGAAAGGGUGGGAUGGGAGUGGGUAAAGAGUU,1.97
UGGCCCUGGUGGCAUGCGGGGAGGAAGAGGUGGCCUCAUGGAUCGUGGUGGUCCCGGCGGAAUGUUCAGAGGUGGCCGUGGUGGAGACAG,2.08
UUCCUCAAGUCCUGUGCUACACAUCGUAUGUACCGAAUCGGCGGCGGCGGAAAGUAUUAUGUUACGCCGUUCGGAUCUGCACUUCCAGCA,-0.642
CUCAAGUCCUGUGCUACACAUCGUAUGUACCGAAUCGGCCCGGCCCGGGCCCGGAAAGUAUUAUGUUACGCCGUUCGGAUCUGCACUUCC,-1.6
UUCACCAGUUUCACUGUGAGCCUCAACGAGCUGGAGACAGGCAUGGAGAAGACCCUGCCACCCACGGACUGCCGCCUGCGCCCUGACAUC,-0.573
CUGUGCUACACAUCGUAUGUACCGAAUCGGGGUUUUUUUGGGUUUUUUUGGUUUUUUUGGGAAAGUAUUAUGUUACGCCGUUCGGAUCUG,-1.45
UGGGAGGUGGAUUUUGUUUAUUUUGUUAGCUCAUUUCCAGGGGUGGGAAUUUUUUUUUAAUAUGUGUCAUGAAUAAAGUUGUUUUUGAAA,3.35
UAACUUUAGAGGAGGAUCUGAUGGAUAUGGCAGUGGACGUGGAUUUGCGGAUGGCUAUAAUGGGUAUGGAGGAGGACCUGGAGGUGGCAA,-0.935
GUCCUGUGCUACACAUCGUAUGUACCGAAUCGGGUUUUUUGGGUUUUUUGGUUUUUUGGAAAGUAUUAUGUUACGCCGUUCGGAUCUGCA,-1.5
UCCUGUGCUACACAUCGUAUGUACCGAAUCGGGGAAAAAAAGGGGUUUGGGGUUUGGGGAAAGUAUUAUGUUACGCCGUUCGGAUCUGCA,2.78
CAAGUCCUGUGCUACACAUCGUAUGUACCGAAUCGGAAAAAAAGGAGGUUUUUGGAAAGUAUUAUGUUACGCCGUUCGGAUCUGCACUUC,-1.64
GUCCUGUGCUACACAUCGUAUGUACCGAAUCGGGGUUUUUUUGGGGAGGGGAAAGGGGAAAGUAUUAUGUUACGCCGUUCGGAUCUGCAC,2.56

# Study 3 — technique: protein binding microarray; molecule type: double-stranded DNA, one strand shown; medium: in vitro; tested at: not given; relative to: not given; direction: higher = stronger binding
# Target: Histone acetyltransferase KAT6A, winged helix 1, GST fusion (KAT6A, Homo sapiens, UniProt Q92794, residues 1-85)
# Setting: 8-mer, flanks averaged, mean of 2 arrays, mostly near background
# Residues (chain): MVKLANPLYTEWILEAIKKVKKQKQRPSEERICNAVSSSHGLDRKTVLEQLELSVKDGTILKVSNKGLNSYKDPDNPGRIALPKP
Sequence,E-score
ATAGATAG,-0.206
AATGTGTA,-0.168
GAACCGGC,0.315
AGATGTTG,-0.0826
AGCGGAGA,-0.0361
ACAGGCCT,-0.16
AGTCTTCG,-0.184
AAACGTCC,-0.106
ACTATCAT,0.0388
CGAACAAG,0.104
CTAGGCTC,-0.135
AACAAAGG,-0.116
CCTCGTAA,-0.0274
CTAATGTA,-0.0423
AAGACTGA,-0.177
TAAAATTA,-0.023
AGGGGGCG,0.146
CCGAACAG,0.0518
CGTCCCGA,0.265
GCTGGGAA,-0.13
ATGGGAAC,-0.125
CGCTTGCC,0.292
AGGGCCGA,0.18
ACTCATTC,-0.0137
AGGACGTC,-0.0799

# Study 4 — technique: RNA Bind-n-Seq; molecule type: RNA; medium: in vitro; tested at: 365 nM; relative to: no-protein control; direction: higher = stronger binding
# Target: RNA binding protein fox-1 homolog 2, RRM domain, GST-SBP tag (RBFOX2, Homo sapiens, UniProt O43251-10, residues 100-194)
# Setting: natural RNA segment, single round, ends assumed
# Shared flanks, not repeated: GGGAGUUCUACAGUCCGACGAUC … UGGAAUUCUCGGGUGCCAA
# Residues (chain): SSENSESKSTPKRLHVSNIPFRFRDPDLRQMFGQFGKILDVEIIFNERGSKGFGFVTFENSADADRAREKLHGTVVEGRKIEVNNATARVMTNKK
Sequence,RBNS enrichment (R)
CCGCCUCCCUGGGACCUGGAUUGGGUCAGAUGCCUGUCCUUGGAGGGGACAAGGUUGACUGCUUAGGAGGCGCGACGCACAGGGCUGCCAGGCCUGGCCCCUCUCUGGGA,0.474
GACUGAGUUCUUUGAGUUGCAUAUAAAUGGGGGUAUAUUAUUUGCCAAAGGUAAAAUUGAGUUUAUUCUUUUUCAUACAGAAAUGGAUUUUGCUUUUGUUUGCUUUUUAU,1.5
ACAUGGGGAGCCCGGAGGACAGGCUGCUGUCCAGGGCAGAGGCCAUGAAGAAGUGCUUCCGUGGCCGACAGUCUGGAAAUGAAUCCAUCAUACAUUAGUGCCAUAGAGUU,0.384
AGCUUCAAUAAUAUAGAGAUCUAACAUAGUCAGUCCUCAGGCCCCCUAAAGAAACAAGCAAGAAAGUGAGGGCCAUCACUAGGGUUGGCUUUGGGGAGGGGAAAACUAAG,1.28
UCUUUGUAGCAGGAUGGUACACAGCCAUCAGCAGAAUGAGUUAAAACCAACAAUGAAUUCAAUAUACCAGGAAAUAGAUUGUUAGUAGGGAAUGGCAUUAAAGGAAAAAA,0.815
AGUCAACUGCUUUUUUAUUUAAAAUUUAAAGAAAAAAAAAAGAAAAAAAAAGCUGUAACCUUAUCAUUUCUGAGUAGACCAUUAAGAGAAAUGCACACCUGUCAGCCCAG,0.867
GCCCAGGAGGGCGUGAUCCGAGUGAAGCCCCAGGUCUCAGAGAGCAAGCUGUAGCCAGAGGUACCAGCUUCGCCUGGGGCUUCAAGAACCUCCCAUCUAUCCCCAUUCCU,0.342
AAAAGCAUGGGACCCUCACAGCAACCAUUCCUGGGAGAUGGGUCCCUUAUAGGUCCAUGACCUGCUCUGUUCAGAGGCCUCUUGGCAGUGUGGCCUGUUUGUGCUGUCCU,0.349
CCUUGCAGAGCUCAUGGUGACCAUUGGUUAAAGCCCAGAAGUUCUGUGUAAGCAUUGAACACUGUCUUAGGAAAGGCCAUGAGGCCAUAUUUCUGUCAACCCUGGACCAA,0.252
GUAUGUGUCUUUAUUUGUAUUGGAAAAUACUGUCUUUAAAUUGUUUCUUGUUGACACUCCCCACAAUGGAAAAAUUACCGAAUUAAACCUGUUUUAUGGAUGGCAGCUUG,1.39
AGCGAUGCUCUUUCCUUCUCUGUUUAGGAAGAAGUGGUACUAGUGUGGUGUGUUUGCCUGGAAGUCCCUCGCCCACAGUGUGUGUUCACACCGACUCCACCUCAGAGCAU,0.26
ACUGUGAAACACUUAACAUAAGAACAAACGCAGCGUCUGGAUUCUUUCCAAGGAGAGCAGCUUUCUCCACAGGAACACAGUAACAAAAGAGGUCCGCCGCCAUCCACACC,0.256

# Repeated from above (study 3):
Sequence,E-score
CTAATGTA,-0.0423
AAGACTGA,-0.177
TAAAATTA,-0.023
AGGGGGCG,0.146
CCGAACAG,0.0518
CGTCCCGA,0.265
GCTGGGAA,-0.13
ATGGGAAC,-0.125
